Measurements from different studies.
Each numbered part is a random draw from the data of one study; scales do not carry over between parts. Changes are numbered by the printed parent chain.

Sample 1
Target: Histone acetyltransferase KAT6A, both winged helices, GST fusion (KAT6A, Homo sapiens, UniProt Q92794, residues 1-181)
Technique: protein binding microarray
Form: double-stranded DNA, one strand shown
Medium: in vitro
Tested at: not given
Notes: 8-mer, flanks averaged, mean of 2 arrays, mostly near background
Relative to: not given
Reading: higher = stronger binding
Target sequence (chain): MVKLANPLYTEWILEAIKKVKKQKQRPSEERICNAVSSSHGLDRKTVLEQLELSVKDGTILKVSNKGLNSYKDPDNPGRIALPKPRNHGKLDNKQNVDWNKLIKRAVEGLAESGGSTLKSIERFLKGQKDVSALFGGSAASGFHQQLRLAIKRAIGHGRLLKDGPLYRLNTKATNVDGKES
| Oligonucleotide | E-score |
| --- | --- |
| ACGGGATC | 0.276 |
| ATCGGAAA | 0.164 |
| AAGTAGTG | -0.132 |
| AAAATCTG | -0.104 |
| GACAATAC | -0.0432 |
| TAGCAAGA | -0.25 |
| AATCCCGA | 0.114 |
| ATCGCACG | 0.0808 |
| CTTGAAAC | -0.0303 |
| GGCACTGA | 0.00968 |
| ACTAATCG | -0.038 |
| CTAGACCA | -0.156 |
| CACTTTTC | -0.115 |
| ATAGTCGG | 0.0884 |
| AAGTTAGA | -0.187 |
| CGGGTGTC | 0.15 |
| ACTATCCG | 0.131 |
| GCTCCCAC | -0.0952 |
| CGCTACAG | 0.0872 |
| GCGCAAAA | 0.268 |
| AAGAACGG | 0.0902 |
| ATCTTCCC | -0.0934 |
| CCCATGAG | -0.104 |
| ATTCTCTG | 0.0154 |
| CTCTAGGA | -0.169 |

Sample 2
Target: ABI1, truncated, D143A, DHFR fusion (Arabidopsis thaliana)
Technique: DHFR PCA, deep sequencing
Medium: yeast
Notes: methotrexate growth selection, single substitutions
Added: (+)-ABA 1.4 µM
Relative to: wild-type fitted maximum
Reading: higher = stronger binding
Parent: PYL1, truncated, DHFR fusion (Arabidopsis thaliana); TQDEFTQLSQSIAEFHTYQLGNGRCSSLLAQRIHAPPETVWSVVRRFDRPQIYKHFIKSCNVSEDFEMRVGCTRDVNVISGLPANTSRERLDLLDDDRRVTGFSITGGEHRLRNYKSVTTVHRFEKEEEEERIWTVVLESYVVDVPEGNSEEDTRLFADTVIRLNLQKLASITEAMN
| Substitution | relative binding score [%] |
| --- | --- |
| K58H | 30.6 |
| Q31N | -10.9 |
| T119F | -6.65 |
| K54I | -4.29 |
| I105E | -10.8 |
| V78I | 69.5 |
| R113C | 34.8 |
| H122P | -4.16 |
| S11Q | 68.8 |
| N114Y | -3.32 |
| E125P | 63.1 |
| T39A | 55.6 |
| V137C | 1.82 |
| R88H | 72 |
| A158Y | -12.7 |
| A170Y | -25.1 |
| V76F | -6.62 |
| P83G | 34.8 |
| D96W | -2.05 |
| R49I | 7.09 |
| E130I | 49.7 |
| E151T | 39.6 |

Sample 3
Target: Ras GTPase-activating protein-binding protein 1, C-terminal RGG region (G3BP1, Homo sapiens, UniProt Q13283)
Sequence of UniProt Q13283 (whole entry, looked up): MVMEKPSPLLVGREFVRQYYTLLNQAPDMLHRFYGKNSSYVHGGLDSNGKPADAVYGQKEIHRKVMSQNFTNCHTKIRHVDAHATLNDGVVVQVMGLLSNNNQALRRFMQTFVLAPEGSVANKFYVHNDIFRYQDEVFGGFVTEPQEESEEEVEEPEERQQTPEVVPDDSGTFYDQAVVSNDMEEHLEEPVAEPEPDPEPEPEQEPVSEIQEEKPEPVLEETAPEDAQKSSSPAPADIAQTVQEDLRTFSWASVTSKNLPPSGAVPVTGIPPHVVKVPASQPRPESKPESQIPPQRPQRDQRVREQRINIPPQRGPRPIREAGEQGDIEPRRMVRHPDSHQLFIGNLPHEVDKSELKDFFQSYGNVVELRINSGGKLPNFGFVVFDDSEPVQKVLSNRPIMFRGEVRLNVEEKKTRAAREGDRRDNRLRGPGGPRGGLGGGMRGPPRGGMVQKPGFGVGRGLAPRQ
Technique: RNA Bind-n-Seq
Form: RNA
Medium: in vitro
Tested at: 1 µM
Notes: whole 134-nt RNA, ends assumed
Added: 150 mM KCl
Relative to: input library
Reading: higher = stronger binding
| Oligonucleotide | log2 enrichment |
| --- | --- |
| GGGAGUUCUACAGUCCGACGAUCCCUCAAGUCCUGUGCUACACAUCGUAUGUACCGAAUCGGGGCGGGGCGGGCGGAAAGUAUUAUGUUACGCCGUUCGGAUCUGCACUUCCAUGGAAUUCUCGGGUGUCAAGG | 0.343 |
| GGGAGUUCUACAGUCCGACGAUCGCAGGAAGUAAAAACAAAUGGAAAUGCUUCGGAUAGUGGCAGGGGUGGGGGUUGCUAAGGAAAGGGUGGGAUGGGAGUGGGUCAAGAGUUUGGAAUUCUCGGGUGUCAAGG | 0.584 |
| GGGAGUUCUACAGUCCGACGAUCAGUCCUGUGCUACACAUCGUAUGUACCGAAUCGGGGUUUUUGGGGUGGGGAAAGGGGAAAGUAUUAUGUUACGCCGUUCGGAUCUGCACUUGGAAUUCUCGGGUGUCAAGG | 2.25 |
| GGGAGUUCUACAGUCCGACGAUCCACAGACUACACGCACCCACACAGACACAGAGGGAAGGGGUUGGGAUGGGGACAGGGUGCACAGCAGGGCGGGGUAGGACCCCAGCCCCUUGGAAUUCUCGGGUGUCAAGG | -0.309 |
| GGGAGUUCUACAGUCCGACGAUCAAGUCCUGUGCUACACAUCGUAUGUACCGAAUCGGGUUUUGGGGUUUUGGUUUUGGAAAGUAUUAUGUUACGCCGUUCGGAUCUGCACUUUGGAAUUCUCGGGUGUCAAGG | -1.24 |
| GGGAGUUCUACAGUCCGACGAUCAGUCCUGUGCUACACAUCGUAUGUACCGAAUCGGGGUGGGGAGGGGUUUUUUUGGGGAAAGUAUUAUGUUACGCCGUUCGGAUCUGCACUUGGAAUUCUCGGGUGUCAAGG | 2.06 |
| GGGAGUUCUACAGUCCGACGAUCUCCUGUGCUACACAUCGUAUGUACCGAAUCGGGGAAAGGGGUUUGGGGUUUUUUUGGGGAAAGUAUUAUGUUACGCCGUUCGGAUCUGCAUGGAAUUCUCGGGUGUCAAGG | 2.63 |
| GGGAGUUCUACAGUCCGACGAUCUCAAGUCCUGUGCUACACAUCGUAUGUACCGAAUCGGAAAGGUUUGGUUUUUGGAAAGUAUUAUGUUACGCCGUUCGGAUCUGCACUUCCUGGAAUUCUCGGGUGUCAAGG | -1.15 |
| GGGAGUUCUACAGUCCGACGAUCGUCCUGUGCUACACAUCGUAUGUACCGAAUCGGGAAAAAGGGUUUGGGUUUUUUUGGGAAAGUAUUAUGUUACGCCGUUCGGAUCUGCACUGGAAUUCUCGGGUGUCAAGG | -0.144 |
| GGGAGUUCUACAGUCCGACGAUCUUCCCCACUUCCUUCCCUCCAGUCCCCACUCACUCACAUGCACACACUAACCUUGGAGCCGAUGGGAUUGAGUGACUGGCACUUGGGACCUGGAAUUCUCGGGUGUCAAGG | 1.09 |

Sample 4
Target: Interferon regulatory factor 5, full length, phosphomimetic (IRF5, Homo sapiens, UniProt Q13568-2, residues 1-514, K96S/S451D/S453D/S456D/S462D)
Technique: protein-binding microarray
Form: double-stranded DNA, one strand shown
Medium: in vitro
Tested at: 250 nM
Notes: 60-bp whole probe
Added: salmon DNA 0.4 mg/ml
Relative to: random background probes
Reading: higher = stronger binding
Constant ends, left off below: GCCTAGCAC … GTCTTGATTCGCTTGACGCTGCTG
| Oligonucleotide | log fluorescence [z-score] |
| --- | --- |
| GAAGGTCTCCTTATCCTGACGTGCTAG | -0.415 |
| TTAGGCCTGGGACTGGGTTAGTGCTAG | -0.7 |
| TTAGGTCTCCTGCTCCTTTAGTGCTAG | -0.347 |
| TTAGGTCTCGGTATCGCTTAGTGCTAG | 1.77 |
| TTAGAACAGAGTTTCGATTAGTGCTAG | 8.12 |
| GACGATTTCGGGACTGGAGAAGTGCTA | 2.12 |
| GACGTACTGGGGACTGGGGACGTGCTA | -0.468 |
| TTAGGACTACTTCTCCTTTAGTGCTAG | -0.0593 |
| GACGATATCAGTCTCGAAACGTGCTAG | 2.13 |
| GACGGTTTCGACACTAGGGACGTGCTA | 4.38 |
| GACGATTTCAGTATCCAGACGTGCTAG | 1.38 |
| GACGATTTCGGGTCTGGAGACGTGCTA | 2.94 |
| TTTTTTTTTTTTTGGAATGTGTGCTAG | 1.18 |
| TGACAGAGTGAGGTTTGGGCGTGCTAG | -0.745 |
| GCCGGTTTCGGGTATCGGGACGTGCTA | 8.86 |
| TTTGGACTGCTTCTCCTTTAGTGCTAG | -0.187 |
| TCAGAACTGGGGTATCGATTAGTGCTA | 2.26 |
| TTAGGTTTCGGTTTCGGTTTGTGCTAG | 11.9 |

Sample 5
Target: Sal-like protein 4, full length isoform B (SALL4, Homo sapiens, UniProt Q9UJQ4-2, residues 1-616)
Technique: universal PBM
Form: double-stranded DNA, one strand shown
Medium: in vitro
Tested at: not given
Notes: 8-mer, flanks averaged, mean of replicates
Reading: higher = stronger binding
Construct (chain): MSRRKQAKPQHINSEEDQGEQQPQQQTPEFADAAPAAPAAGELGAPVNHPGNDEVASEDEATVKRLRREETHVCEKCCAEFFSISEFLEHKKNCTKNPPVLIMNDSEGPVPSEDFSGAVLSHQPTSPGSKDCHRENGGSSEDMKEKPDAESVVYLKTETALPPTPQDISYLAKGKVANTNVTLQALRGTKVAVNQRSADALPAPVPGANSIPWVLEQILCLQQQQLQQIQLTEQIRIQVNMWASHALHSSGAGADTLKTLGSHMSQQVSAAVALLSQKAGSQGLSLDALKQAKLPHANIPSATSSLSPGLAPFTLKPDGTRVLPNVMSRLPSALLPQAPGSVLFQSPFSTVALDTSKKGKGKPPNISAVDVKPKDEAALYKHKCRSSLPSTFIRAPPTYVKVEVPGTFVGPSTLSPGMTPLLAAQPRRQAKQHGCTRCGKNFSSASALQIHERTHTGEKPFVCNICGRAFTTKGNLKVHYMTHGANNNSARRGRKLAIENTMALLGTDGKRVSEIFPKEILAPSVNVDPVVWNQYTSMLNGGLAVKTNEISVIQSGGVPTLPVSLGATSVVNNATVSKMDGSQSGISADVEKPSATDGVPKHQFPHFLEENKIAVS
| Oligonucleotide | E-score |
| --- | --- |
| ACAAAATA | 0.283 |
| TACGGGCA | -0.17 |
| CCAGCGCC | -0.295 |
| CATTGGAA | 0.179 |
| GATAAAGA | 0.187 |
| GGACAGAC | -0.235 |
| ATCTTCGA | 0.145 |
| AACCATAA | 0.343 |
| ACCCGTCA | -0.252 |
| CGCAACCG | -0.25 |
| AACGATGC | -0.0412 |
| GGGTTGTA | 0.0865 |
| AAGTAGGC | -0.107 |
| CAGCTGAA | -0.0702 |
| GCAAACTA | -0.00046 |
| ACAGGGCA | -0.0813 |
| TATACTGA | 0.291 |
| GCCAAAAA | 0.186 |
| CCCTCAAC | -0.178 |
| CCGGCTGA | -0.341 |
| AGCGAAAG | -0.0505 |
| AGTTCCGG | -0.315 |
| ACTCAGTG | -0.181 |
| CTTGGAAC | -0.101 |
